Assay results collected from several papers.
Each line is one published result; not all experiments were run side by side. “And” joins repeats or separate records; there may be more than shown. ± gives the spread as reported.
Maoa: Amine oxidase [flavin-containing] A (Maoa, Rattus norvegicus, UniProt P21396)
FFAR4: Free fatty acid receptor 4 (FFAR4, Homo sapiens, UniProt Q5NUL3)
NADH dehydrogenase [ubiquinone] iron-sulfur protein 7, mitochondrial/NADH dehydrogenase [ubiquinone] iron-sulfur protein 2, mitochondrial/MT-ND1: NADH dehydrogenase [ubiquinone] iron-sulfur protein 7, mitochondrial/NADH dehydrogenase [ubiquinone] iron-sulfur protein 2, mitochondrial/MT-ND1 (Homo sapiens, UniProt O75251+O75306+P03886)
Kir3.1/Kir3.2: Kir3.1/Kir3.2 (Homo sapiens, UniProt P48051+P48549)
PDE1C isoform PDE1C2: Dual specificity calcium/calmodulin-dependent 3',5'-cyclic nucleotide phosphodiesterase 1C, isoform PDE1C2 (PDE1C, Homo sapiens, UniProt Q14123)
TRPM8: Transient receptor potential cation channel subfamily M member 8 (TRPM8, Homo sapiens, UniProt Q7Z2W7)
GAP50: Glideosome-associated protein 50 (GAP50, Plasmodium falciparum, UniProt Q8I2X3)

[H]/N=C(/N)NCC(=O)O
normalised MST signal (SLC6A6 (Homo sapiens, UniProt P31641, G62A); binding, microscale thermophoresis; 500 µM, room temperature, with: 50 nM labelled protein; higher = more binding): 0.0371

NCc1ccccc1
pKa1 (Maoa; kcat/Km ascending limb free E S, substrate; pH 6.5-9.5): 8.3 ± 0.1

O=C(COP(=O)(O)O)[C@@H](O)[C@H](O)[C@H](O)COP(=O)(O)O
thermal stability ratio (Large ribosomal subunit protein uL4 (Homo sapiens, UniProt P36578); thermal proteome profiling, item: RPL4; HepG2 cell lysate; concentration not given, 57 over 37 °C; baseline: compound over control): 0.931 and 0.586 and 0.682

CCCCCCCC(=O)c1cc(OC)c(OC)c(OC)c1CC(=O)OCC
activation (Nuclear receptor subfamily 4 group A member 2, LBD (Homo sapiens, UniProt P43354); reporter gene, Gal4 hybrid reporter; 10 µM; baseline: vehicle): 0.98 fold

O=c1[nH]c(NCCCc2ccccc2)c(Br)c(=O)[nH]1
inhibition (FFAR4; antagonist, β-arrestin recruitment; CHO cells; 10 µM): 14 ± 1%

NC(=O)NOCCCCCCCCCCCCCC[P+](c1ccccc1)(c1ccccc1)c1ccccc1.O=C([O-])C(F)(F)F
oxygen consumption rate (NADH dehydrogenase [ubiquinone] iron-sulfur protein 7, mitochondrial/NADH dehydrogenase [ubiquinone] iron-sulfur protein 2, mitochondrial/MT-ND1; complex I-dependent respiration, Seahorse XF96; HCT-116; 4 µM, 24 h; baseline: control): 8.63 ± 5.08%

O=c1nc(SCc2cc(F)cc(C(F)(F)F)c2)nc(SCc2ccc3nc(Cl)ccc3c2)[nH]1
mean linear DNA (TOP2A (Homo sapiens, UniProt P11388); DNA cleavage; 15.6 µM): 0%

C[S+](C)CCC(=O)[O-]
thermal shift (uncharacterized protein (Pelagibacter ubique, UniProt Q4FKZ8); differential scanning fluorimetry; Candidatus Pelagibacter ubique; in-house screen): 13.2 °C

CN1CCN(c2cc(-c3ccncc3)c(-c3ccc4ccccc4c3)nn2)CC1
activation (GIPR (Homo sapiens, UniProt P48546); agonist, FLIPR; 12.5 µM): 0.5%

CCCCCCCCC(=O)c1cc(O)c(O)c(O)c1
activation (Nuclear receptor subfamily 4 group A member 2 (Homo sapiens, UniProt P43354); reporter gene, full-length homodimer NurRE reporter; 10 µM; baseline: vehicle): 0.71 fold

CCc1cc(NC(=O)COc2ccc(Cl)cc2Cl)n(C2CCC(F)(F)CC2)n1
selectivity ratio (Kir3.1/Kir3.2; thallium flux; HEK293; baseline: GIRK1/4 EC50 over Kir3.1/Kir3.2 EC50): 12.2 fold and 12 fold

O=c1cc(NCCc2ccccc2F)[nH]c(=O)[nH]1
activation (FFAR4; agonist, β-arrestin recruitment; CHO cells; 10 µM): 1%

CO[C@H]1O[C@H](COS(=O)(=O)O)[C@@H](O[C@@H]2O[C@@H](C(=O)O)[C@@H](O[C@H]3O[C@H](COS(=O)(=O)O)[C@@H](O[C@@H]4O[C@H](C(=O)O)[C@@H](O[C@H]5O[C@H](COS(=O)(=O)O)[C@@H](O)[C@H](O)[C@H]5NS(=O)(=O)O)[C@H](O)[C@H]4O)[C@H](OS(=O)(=O)O)[C@H]3NS(=O)(=O)O)[C@H](O)[C@H]2OS(=O)(=O)O)[C@H](O)[C@H]1NS(=O)(=O)O
binding stoichiometry (Beta-2-glycoprotein 1, domain V (APOH, Homo sapiens, UniProt P02749, V266L); isothermal titration calorimetry; concentration not given, 298 K, with: 150 mM NaCl): 1.08 ± 0.12

CCCCCCNc1[nH]c(=O)[nH]c(=O)c1N=O
agonist effect (FFAR4; agonist, β-arrestin recruitment; CHO cells; 10 µM; baseline: 30 µM TUG-891): 1 ± 1%

N[C@@H](Cc1ccccc1)C(=O)O
cAMP level (ADRB1 (Homo sapiens, UniProt P08588); HEK293 expressing β1AR; 300 µM): 18.3 pmol/mg protein and 18.9 pmol/mg protein and 22 pmol/mg protein and 29.3 pmol/mg protein and 17.3 pmol/mg protein and 17.2 pmol/mg protein

Cc1cc2c(c(=O)[nH]1)C(=O)O/C2=C\c1ccc(Br)cc1OC(C)C
binding free energy (PDE1C isoform PDE1C2; enzyme activity, inhibitor; with: 3H-cGMP substrate): -8.17 kcal/mol

CCNc1cc(=O)[nH]c(=O)[nH]1
inhibition (FFAR4; antagonist, β-arrestin recruitment; CHO cells; 10 µM, with: 4 µM TUG-891): 13 ± 2%

O=C(c1ccc(CNCCCN2CCN(C3CCCCC3)CC2)cc1)c1ccc([N+](=O)[O-])cc1
Ki ratio (TMEM97 (Homo sapiens, UniProt Q5BJF2); radioligand binding; RT-4 cell membranes; baseline: sigma1 Ki over sigma2 Ki): 39.8

O=c1cc(NCCc2ccc(Br)cc2)[nH]c(=O)[nH]1
agonist effect (FFAR4; agonist, β-arrestin recruitment; CHO cells; 10 µM; baseline: 30 µM TUG-891): 0 ± 1%

Nc1cccc(-c2cc3c(Oc4cccc(O)c4)ncnc3[nH]2)c1
remaining activity (TRPM8; antagonist; HEK293; 5 µM; baseline: control): 100 ± 8.49%

O=c1cc(NCCCc2ccccc2)[nH]c(=O)[nH]1
activation (FFAR4; agonist, β-arrestin recruitment; CHO cells; 10 µM): 1%

C=CC(=O)N1CCC[C@@H](n2nc(-c3ccc(Oc4ccccc4)cc3)c3c(N)ncnc32)C1
remaining activity (CDKL1 (Homo sapiens, UniProt Q00532); 0.1 µM): 35.6%

CC[C@@H]1[C@H](F)C(=O)N[C@@H]1COc1nccc2cc(C(N)=O)c(OC)cc12
inhibition (MAP3K21 (Homo sapiens, UniProt Q5TCX8); ATP-site probe binding, ActivX profiling, item: MLK4; THP-1 cell lysate; 0.2 mM, Lys2 site): 4.6%

Cc1ccc(S(=O)(=O)Nc2ccc(CN3CCN(C(=O)c4cccc(C#N)c4)CC3)cc2)cc1
kon (GAP50; binding, surface plasmon resonance; 1:1 binding model): 40700 M⁻¹ s⁻¹

O=c1cc(NCCc2cccs2)[nH]c(=O)[nH]1
agonist effect (FFAR4; agonist, β-arrestin recruitment; CHO cells; 10 µM; baseline: 30 µM TUG-891): 1 ± 1%

Cc1ccc(S(=O)(=O)NCc2ccc(CNC(=O)c3ccccc3)cc2)cc1
EC (CXCR4 (Homo sapiens, UniProt P61073); binding, inhibitor, competitive binding; MDA-MB-231; with: biotinylated TN14003): > 1000 nM

Cc1nnc(NCc2cccc(Cl)c2)c2ccccc12
koff (GAP50; binding, surface plasmon resonance; 1:1 binding model): 1.73 s⁻¹

CCc1cc(NC(=O)COc2cccc(Cl)c2Cl)n(C2CCC(F)(F)CC2)n1
Emax (Kir3.1/Kir3.2; thallium flux, activator; HEK293; baseline: standard compound): 72%

O=C(NC1CCC1)c1ccc2nc(-c3cccc(NS(=O)(=O)NCCN4CCCCC4)c3)cn2c1
protein level (Protein ENL (MLLT1, Homo sapiens, UniProt Q03111); degrader, immunoblot, item: MLLT1; 10 µM, 12 h; baseline: DMSO control): 8%

O=C(COc1cc(Cl)ccc1Cl)Nc1cc(C2CCC2)nn1CC(F)(F)F
Emax (Kir3.1/Kir3.2; thallium flux, activator; HEK293; baseline: standard compound): 36%

COc1cccc(/C=C2\OC(=O)c3c2cc(C)[nH]c3=O)c1
binding free energy (PDE1C isoform PDE1C2; enzyme activity, inhibitor; with: 3H-cGMP substrate): -8.39 kcal/mol

CC(C)n1cnc2c(Nc3cccc(Cl)c3)nc(NCCO)nc21
remaining activity (TRPM8; antagonist; HEK293; 5 µM; baseline: control): 98.7 ± 8.51%

COc1cc(F)ccc1-c1ncnc(Nc2cccc(C[S@](C)(=N)=O)c2)n1
remaining activity (WNK3 (Homo sapiens, UniProt Q9BYP7); kinase activity; 10 µM, with: 10 µM ATP): 91%

NCc1ccc(F)cc1
kcat (Maoa; substrate; rat; pH 9.0, α,α-protio substrate): 0.983 ± 0.014 s⁻¹

C=CC(=O)N1CCC(COCC(=O)N2CCN(c3nc(-c4cnc(N)nc4C(F)F)nc(N4CCOC[C@@H]4C)n3)CC2)CC1
remaining binding (Ribosomal protein S6 kinase alpha-1, N-terminal kinase domain (RPS6KA1, Homo sapiens, UniProt Q15418); KINOMEscan; 1 µM): 93%

c1ccc(Oc2ccc(-c3cc(C4CCOCC4)[nH]n3)cc2)cc1
koff (GAP50; binding, surface plasmon resonance; 1:1 binding model): 0.0195 s⁻¹

N[C@@](CCCCB(O)O)(C(=O)O)C1CCN(Cc2ccc(Cl)c(Cl)c2)CC1 (racemic)
binding enthalpy (Arginase (Schistosoma mansoni, UniProt Q6WVP6); isothermal titration calorimetry; concentration not given): -7.7 ± 0.1 kcal/mol

Nc1ncnc2c1ncn2[C@@H]1O[C@H](CSCC[C@H](N)C(=O)O)[C@@H](O)[C@H]1O
ΔG of binding (O-methyltransferase (Sorghum bicolor, UniProt A0A1B6PFV1); concentration not given, with: RSV+): -7.37 kcal/mol

O=S(=O)(O)O
reaction velocity (GUK1 (Homo sapiens, UniProt Q16774); enzyme activity, NADH-coupled; 1 mM, with: ATP 250 µM): 0.0893 µM/s and 0.0929 µM/s and 0.102 µM/s

CC1=NN(c2cccc(C)c2)C(=O)C1=NNc1ccc(S(N)(=O)=O)cc1
inhibition (Alpha-amylase (Bos taurus, UniProt Q3MHH8); enzyme activity, inhibitor, glucose oxidase; 500 µg/mL, with: dextrin): 22.6%

Nc1nc2cc(F)c(F)cc2[nH]1
Hill coefficient (HVCN1 (Homo sapiens, UniProt Q96D96); proton current, inhibitor, inside-out patch clamp; Xenopus oocytes; dimeric channel): 1.13 ± 0.09

Cn1cc(C(=O)N2CCc3ccccc32)c2ccccc21
Hill slope (3-oxoacyl-[acyl-carrier-protein] reductase FabG (fabG, Pseudomonas aeruginosa, UniProt O54438); enzyme activity, inhibitor, NADPH fluorescence; reverse reaction, with: 3-OH-decanoyl-NAC, NADP): 1.4

COC(=O)c1ccc(NC(=O)COc2cc(Cl)ccc2Cl)s1
activity (Kir3.1/Kir3.2; activator, thallium flux; HEK293; concentration not given): inactive

NC(=O)NOCCCCCCCCCCCCCCCCCCCC[P+](c1ccccc1)(c1ccccc1)c1ccccc1.O=C([O-])C(F)(F)F
oxygen consumption rate (NADH dehydrogenase [ubiquinone] iron-sulfur protein 7, mitochondrial/NADH dehydrogenase [ubiquinone] iron-sulfur protein 2, mitochondrial/MT-ND1; complex I-dependent respiration, Seahorse XF96; HCT-116; 5 µM, 24 h; baseline: control): 6.26 ± 2.75%

CCCCC(CC)CNc1cc(=O)[nH]c(=O)[nH]1 (racemic)
inhibition (FFAR4; antagonist, β-arrestin recruitment; CHO cells; 10 µM): -13 ± 7%

Some of these lines once more:
O=C(COc1cc(Cl)ccc1Cl)Nc1cc(C2CCC2)nn1CC(F)(F)F
Emax (Kir3.1/Kir3.2; thallium flux, activator; HEK293; baseline: standard compound): 36%

COc1cccc(/C=C2\OC(=O)c3c2cc(C)[nH]c3=O)c1
binding free energy (PDE1C isoform PDE1C2; enzyme activity, inhibitor; with: 3H-cGMP substrate): -8.39 kcal/mol

CC(C)n1cnc2c(Nc3cccc(Cl)c3)nc(NCCO)nc21
remaining activity (TRPM8; antagonist; HEK293; 5 µM; baseline: control): 98.7 ± 8.51%

COc1cc(F)ccc1-c1ncnc(Nc2cccc(C[S@](C)(=N)=O)c2)n1
remaining activity (WNK3 (Homo sapiens, UniProt Q9BYP7); kinase activity; 10 µM, with: 10 µM ATP): 91%
